Assay results collected from several papers.
Every numbered part comes from another study and shows a few of its results, in no order.
UniProt P00519, sequence (whole entry, unmodified, looked up): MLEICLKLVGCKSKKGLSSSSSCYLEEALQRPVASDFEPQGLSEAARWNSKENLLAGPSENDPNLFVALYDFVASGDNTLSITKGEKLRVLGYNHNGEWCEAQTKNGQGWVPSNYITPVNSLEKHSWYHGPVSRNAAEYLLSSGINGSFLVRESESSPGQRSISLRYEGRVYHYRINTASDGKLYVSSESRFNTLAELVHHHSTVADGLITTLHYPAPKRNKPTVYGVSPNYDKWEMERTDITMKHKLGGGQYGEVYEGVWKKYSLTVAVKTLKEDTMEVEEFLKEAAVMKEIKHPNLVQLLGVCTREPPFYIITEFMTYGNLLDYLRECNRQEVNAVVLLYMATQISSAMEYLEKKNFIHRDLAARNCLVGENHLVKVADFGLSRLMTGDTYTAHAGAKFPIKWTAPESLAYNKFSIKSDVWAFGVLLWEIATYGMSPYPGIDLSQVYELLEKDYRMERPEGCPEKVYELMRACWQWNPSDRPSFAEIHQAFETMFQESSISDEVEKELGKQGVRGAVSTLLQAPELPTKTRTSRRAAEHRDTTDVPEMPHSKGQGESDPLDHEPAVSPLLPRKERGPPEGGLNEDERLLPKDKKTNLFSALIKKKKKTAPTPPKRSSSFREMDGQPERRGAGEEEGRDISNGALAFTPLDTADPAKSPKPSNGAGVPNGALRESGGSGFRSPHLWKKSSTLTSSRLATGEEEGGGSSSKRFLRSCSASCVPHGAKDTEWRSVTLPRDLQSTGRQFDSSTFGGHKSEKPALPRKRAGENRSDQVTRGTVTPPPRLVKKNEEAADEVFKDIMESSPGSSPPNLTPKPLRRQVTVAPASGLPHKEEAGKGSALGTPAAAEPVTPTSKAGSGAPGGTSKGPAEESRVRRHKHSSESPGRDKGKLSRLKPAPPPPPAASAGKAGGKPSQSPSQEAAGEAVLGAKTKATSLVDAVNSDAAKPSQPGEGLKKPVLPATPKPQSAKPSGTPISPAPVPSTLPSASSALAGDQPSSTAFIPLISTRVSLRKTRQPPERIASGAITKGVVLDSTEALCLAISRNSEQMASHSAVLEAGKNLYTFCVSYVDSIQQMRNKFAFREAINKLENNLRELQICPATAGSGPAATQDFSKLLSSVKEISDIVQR
UniProt P28222, sequence (whole entry, looked up): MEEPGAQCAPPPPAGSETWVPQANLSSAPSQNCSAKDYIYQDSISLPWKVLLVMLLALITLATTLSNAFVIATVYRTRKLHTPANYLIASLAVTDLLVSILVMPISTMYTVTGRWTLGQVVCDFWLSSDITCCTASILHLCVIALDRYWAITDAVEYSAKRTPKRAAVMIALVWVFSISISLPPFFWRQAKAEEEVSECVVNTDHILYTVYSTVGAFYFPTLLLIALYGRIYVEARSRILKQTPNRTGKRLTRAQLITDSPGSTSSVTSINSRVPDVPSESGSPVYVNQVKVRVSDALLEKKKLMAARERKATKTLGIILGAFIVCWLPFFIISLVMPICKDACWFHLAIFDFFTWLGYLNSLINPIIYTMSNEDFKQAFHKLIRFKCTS

Block 1
Target: Maternal embryonic leucine zipper kinase (MELK, Homo sapiens, UniProt Q14680)
UniProt Q14680, sequence (whole entry, looked up): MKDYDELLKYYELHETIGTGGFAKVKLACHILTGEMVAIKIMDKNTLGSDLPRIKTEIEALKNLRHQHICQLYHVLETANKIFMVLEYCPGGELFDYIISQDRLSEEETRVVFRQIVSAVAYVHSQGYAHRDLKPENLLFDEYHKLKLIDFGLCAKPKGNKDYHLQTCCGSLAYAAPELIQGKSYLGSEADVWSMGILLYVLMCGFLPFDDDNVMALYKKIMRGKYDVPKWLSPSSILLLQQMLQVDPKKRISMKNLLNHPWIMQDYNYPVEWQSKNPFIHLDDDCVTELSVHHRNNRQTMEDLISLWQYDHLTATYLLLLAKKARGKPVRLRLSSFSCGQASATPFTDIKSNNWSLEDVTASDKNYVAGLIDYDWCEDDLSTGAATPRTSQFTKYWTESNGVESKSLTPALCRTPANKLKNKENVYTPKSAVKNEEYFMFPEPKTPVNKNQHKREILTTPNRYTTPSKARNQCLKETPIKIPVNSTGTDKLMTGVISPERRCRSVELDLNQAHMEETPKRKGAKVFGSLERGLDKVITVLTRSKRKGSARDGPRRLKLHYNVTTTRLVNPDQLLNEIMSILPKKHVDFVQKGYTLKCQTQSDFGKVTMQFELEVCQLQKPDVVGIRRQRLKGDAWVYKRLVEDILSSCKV
Observed: enzyme activity
Action: inhibitor
Concentration: 0.5 µM
Relative to: control
Compound | remaining activity
COc1ccc(S(=O)(=O)N(CCO)c2ccccc2CN(C)CC=Cc2ccc(Cl)cc2)cc1 | 99.4%
CC#CC(=O)Nc1cc2c(Nc3ccc(F)c(Cl)c3)ncnc2cn1 | 101%
CCCC(=O)Oc1ccc2[nH]c(C(=O)c3cc4ccccc4[nH]3)cc2c1 | 96.4%
CC[n+]1c(/C=C/N(C)c2ccccc2)n(-c2ccccc2)c2ccc(-c3nc4ccccc4s3)cc21 | 93.4%
Cc1cc(Nc2nc(-c3ccccc3)nc3ccccc23)n[nH]1 | 69.1%
Nc1nccc(-c2c(-c3ccc(F)cc3)ncn2C2CCNCC2)n1 | 100%
Fc1ccc(-c2nc3n(c2-c2ccncc2)CCS3)cc1 | 102%
Oc1ccc(Nc2nc(-c3ccc(Cl)cc3)cs2)cc1 | 100%
O=C1Cc2c([nH]c3ccc([N+](=O)[O-])cc23)-c2ccccc2N1 | 71.7%
Nc1ncnc2c1cnn2-c1ccccc1 | 92.6%
NC(=O)c1ccc(N(C(N)=O)c2c(F)cccc2F)nc1-c1ccc(F)cc1F | 87.1%
Cc1cncc2cccc(S(=O)(=O)N3CCCN(C(=O)CN)C[C@@H]3C)c12 | 83%
O=C1NC(=O)C(c2c[nH]c3ccccc23)=C1c1c[nH]c2ccccc12 | 82%
COc1cc(Nc2c(C#N)cnc3cc(OCCCN4CCN(C)CC4)c(OC)cc23)c(Cl)cc1Cl | 25.8%
N#CC(=C(N)Sc1ccc(N)cc1)c1ccccc1C(F)(F)F | 96.1%
Nc1nc(Nc2ccc(S(N)(=O)=O)cc2)nn1C(=O)c1c(F)cccc1F | 87.2%
CC(C)(C)n1nc(Cc2cccc3ccccc23)c2c(N)ncnc21 | 90.7%
CC(=O)c1ccc(N2CCOCC2)cc1O | 102%
CSc1nc(-c2ccnc(N[C@@H](C)c3ccccc3)c2)c(-c2ccc(F)cc2)[nH]1 (racemic) | 94.2%
Cc1ccc(NC2=CC(=O)c3sc(C)nc3C2=O)cc1 | 93.2%
O=S(=O)(NCCNC/C=C/c1ccc(Br)cc1)c1cccc2cnccc12 | 75.1%
CCc1[nH]c(-c2ccc(OC)cc2)nc1-c1ccncc1 | 110%

Block 2
Target: WD repeat-containing protein 5 (WDR5, Homo sapiens, UniProt P61964)
Method: SPR
SMILES | association rate constant [M⁻¹ s⁻¹]
C[C@@H]1CN(c2ccc(-c3cc(C(=O)NCCCNC(=O)/C=C/c4[nH]cc(C(=O)N[C@@H](CC(N)=O)c5ccc(F)c(Cl)c5)c4-c4ccc(Cl)cc4F)ccc3F)cc2NC(=O)c2c[nH]c(=O)cc2C(F)(F)F)C[C@H](C)N1C | 83300
C[C@@H]1CN(c2ccc(-c3cc(C(=O)NCCOCCOCCOCCOCCNC(=O)/C=C/c4[nH]cc(C(=O)N[C@@H](CC(N)=O)c5ccc(F)c(Cl)c5)c4-c4ccc(Cl)cc4F)ccc3F)cc2NC(=O)c2c[nH]c(=O)cc2C(F)(F)F)C[C@H](C)N1C | 73000
C[C@@H]1CN(c2ccc(-c3cc(C(=O)NCCOCCOCCOCCOCCOCCOCCNC(=O)/C=C/c4[nH]cc(C(=O)N[C@@H](CC(N)=O)c5ccc(F)c(Cl)c5)c4-c4ccc(Cl)cc4F)ccc3F)cc2NC(=O)c2ccc(F)cc2C(F)(F)F)C[C@H](C)N1C | 60700

Block 3
Method: logD(dd/w) and ALogP
Notes: JT method
Structure (SMILES) | lipophilic permeability efficiency
CC(C)C[C@@H]1NC(=O)[C@H](CC(C)C)NC(=O)[C@@H](CC(C)C)NC(=O)[C@H](C(C)C)NC(=O)[C@@H](CCC(=O)N2CCCC2)NC(=O)[C@H](C)NC(=O)[C@H](C)NC1=O | 1.3
CC(C)C[C@@H]1NC(=O)[C@H](CCC(=O)N2CCCC2)NC(=O)[C@H](CCC(=O)N2CCCC2)NC(=O)[C@@H](Cc2cscn2)NC(=O)[C@H](CC(C)C)NC(=O)[C@@H](CC(C)C)NC(=O)[C@H](CC(C)C)NC1=O | 1.61
CC(C)C[C@@H]1NC(=O)[C@H](CC(C)C)NC(=O)[C@@H](C(C)C)NC(=O)[C@H](C(C)C)NC(=O)[C@H](C(C)C)NC(=O)[C@H](Cc2cscn2)NC(=O)[C@H](C)NC1=O | 1.95
CC(C)C[C@@H]1NC(=O)[C@H](C)NC(=O)[C@H](Cc2cscn2)NC(=O)[C@H](CCC(=O)N2CCCC2)NC(=O)[C@H](CC(C)C)NC(=O)[C@H](CC(C)C)NC(=O)[C@@H](C(C)C)NC1=O | 1.48
CC(C)C[C@@H]1NC(=O)[C@H](CC(C)C)NC(=O)[C@@H](C(C)C)NC(=O)[C@@H](C)NC(=O)[C@H](C(C)C)NC(=O)[C@H](Cc2cscn2)NC(=O)[C@H](C)NC1=O | 1.64
CC(C)C[C@@H]1NC(=O)[C@H](Cc2cscn2)NC(=O)[C@H](Cc2cscn2)NC(=O)[C@@H](CC(C)C)NC(=O)[C@@H](CCC(=O)N2CCCC2)NC(=O)[C@H](CC(C)C)NC(=O)[C@@H](CC(C)C)NC1=O | 2.73
CC(C)C[C@@H]1NC(=O)[C@H](C)NC(=O)[C@H](CC(C)C)NC(=O)[C@@H](CC(C)C)NC(=O)[C@H](CC(C)C)NC(=O)[C@H](C)NC(=O)[C@@H](CC(C)C)NC1=O | 2.18
CC(C)C[C@@H]1NC(=O)[C@H](Cc2cscn2)NC(=O)[C@H](Cc2cscn2)NC(=O)[C@H](C)NC(=O)[C@@H](CCC(=O)N2CCCC2)NC(=O)[C@H](CC(C)C)NC(=O)[C@@H](CC(C)C)NC1=O | 2.23
CC(C)C[C@@H]1NC(=O)[C@H](CC(C)C)NC(=O)[C@@H](CC(C)C)NC(=O)[C@H](C(C)C)NC(=O)[C@@H](Cc2cscn2)NC(=O)[C@H](Cc2cscn2)NC(=O)[C@H](CCC(=O)N2CCCC2)NC1=O | 2.21
CC(C)C[C@@H]1NC(=O)[C@H](C)NC(=O)[C@@H](C(C)C)NC(=O)[C@H](C(C)C)NC(=O)[C@H](CC(C)C)NC(=O)[C@@H](CC(C)C)NC(=O)[C@H](CC(C)C)NC1=O | 2.32
CC(C)C[C@@H]1NC(=O)[C@H](CC(C)C)NC(=O)[C@H](CC(C)C)NC(=O)[C@H](CC(C)C)NC(=O)[C@@H](Cc2cscn2)NC(=O)[C@@H](CC(C)C)NC(=O)[C@H](C)NC1=O | 2.55

Block 4
Host: mouse
Medium: microsomes or S9
Concentration: 2 µM
Time: 0.5 h
SMILES | remaining compound [%]
CC1=CC[C@H]2C(C)(C)[C@H](O)CC[C@]2(C)[C@H]1COc1ccc2ccc(=O)oc2c1 | 14
COc1cc(-c2nn([C@H]3CC[C@H](N4CCN(C(C)=O)CC4)CC3)c3ncnc(N)c23)ccc1NC(=O)c1cc2ccccc2n1C | 73.8
COC(=O)c1c(SC)nn2c(=S)[nH]cnc12 | 86.8
COc1cc(=O)n(C)cc1C(=O)NCCOc1ccc(F)cc1 | 81.5
CCOC(=O)c1c(=O)n(-c2ccc(C)cc2)nc2ccccc12 | 0.104
OCCNc1nc(Nc2ccc(Cl)cc2)c2nc[nH]c2n1 | 8.04
CN/C(=N/c1cc(C)nn1-c1ccccc1)c1cccs1 | 4.79
COc1ccc(C2OC(=O)CC2C(=O)N2CCN(c3cc(Cl)ccc3C)CC2)cc1OC (stereo not drawn) | 43.4
Cc1ccccc1-c1nc2ccccc2cc1Cn1c2ccc(C(N)=O)cc2c2cnc(N)nc21 | 39.9
Cc1nn(C2CCS(=O)(=O)C2)c2c1C(C(C)C)CC(=O)N2 (stereo not drawn) | 84.1
Cc1c(C#N)c2ccccc2n1Cc1nc(CCc2ccccc2)n[nH]1 | 0.599
Cc1ccc(NC(=O)N2Cc3c(sc4c3CCCC4)-n3cccc3C2c2ccc(N(C)C)cc2)c(C)c1 (stereo not drawn) | 19.7
CCCn1c(N)c(N(CCOC)C(C)=O)c(=O)n(CC(=O)Nc2cc(Cl)cc(Cl)c2)c1=O | 48.8
CCCn1nccc1-c1csc(S(=O)(=O)NC(C)(C)CC)c1 | 0.0192
Cc1nc2c3ccccc3nn2c(C)c1CC(=O)NCCc1c[nH]cn1 | > 100
COc1nccc(CNc2nn(C)cc2Cl)c1F | > 100

Further values, each from its own experiment
Structure (SMILES) | target | observed | method | concentration | measurement | value
COc1cccc(NC(=O)c2nc3scc(CN(C)Cc4ccccc4)c3c(=O)[nH]2)c1 | HTR1B (Homo sapiens, UniProt P28222) | ligand displacement |  | 10 µM | inhibition | -2.26%
Cn1cncc1[C@@](O)(COc1ccc(C#N)cc1-c1ccc(OC(F)(F)F)cc1)c1ccc(C#N)cc1 | Tyrosine-protein kinase ABL1, non-phosphorylated (ABL1, Homo sapiens, UniProt P00519, F317I) | binding | competition with immobilised ligand | 1 µM | remaining binding | 100%
